Results collected from several papers.
Compare with care: the assays were run in different laboratories. Numbers after ± are the reported error.
PCSK9: PCSK9 fragment (Homo sapiens)
indolicidin: indolicidin (Bos taurus, UniProt P33046)
Chain of UniProt P33046 (whole entry, looked up): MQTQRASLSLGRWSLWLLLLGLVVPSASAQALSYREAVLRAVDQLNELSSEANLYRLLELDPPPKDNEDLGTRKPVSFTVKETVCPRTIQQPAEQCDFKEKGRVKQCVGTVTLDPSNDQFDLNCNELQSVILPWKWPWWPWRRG
CD8A 22-235: CD8A fragment (Homo sapiens)
T1: HNRNPR full length 1-636 (Homo sapiens); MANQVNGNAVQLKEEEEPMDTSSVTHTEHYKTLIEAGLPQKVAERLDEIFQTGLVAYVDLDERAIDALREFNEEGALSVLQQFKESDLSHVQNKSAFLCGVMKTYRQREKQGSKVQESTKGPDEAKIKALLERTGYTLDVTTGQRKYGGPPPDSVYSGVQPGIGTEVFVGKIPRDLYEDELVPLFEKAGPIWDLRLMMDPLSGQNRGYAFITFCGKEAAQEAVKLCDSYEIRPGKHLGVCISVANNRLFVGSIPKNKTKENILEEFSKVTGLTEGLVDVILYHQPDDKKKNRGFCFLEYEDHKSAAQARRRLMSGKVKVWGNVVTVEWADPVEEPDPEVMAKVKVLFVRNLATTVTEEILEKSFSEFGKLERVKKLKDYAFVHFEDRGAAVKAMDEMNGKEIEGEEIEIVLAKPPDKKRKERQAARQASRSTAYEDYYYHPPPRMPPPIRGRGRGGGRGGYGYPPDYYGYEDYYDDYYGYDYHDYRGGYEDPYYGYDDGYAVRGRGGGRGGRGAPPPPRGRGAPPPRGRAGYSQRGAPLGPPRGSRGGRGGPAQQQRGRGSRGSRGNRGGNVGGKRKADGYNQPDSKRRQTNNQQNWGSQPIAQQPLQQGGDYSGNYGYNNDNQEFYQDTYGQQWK
Chain of UniProt Q8MQJ9 (whole entry, looked up): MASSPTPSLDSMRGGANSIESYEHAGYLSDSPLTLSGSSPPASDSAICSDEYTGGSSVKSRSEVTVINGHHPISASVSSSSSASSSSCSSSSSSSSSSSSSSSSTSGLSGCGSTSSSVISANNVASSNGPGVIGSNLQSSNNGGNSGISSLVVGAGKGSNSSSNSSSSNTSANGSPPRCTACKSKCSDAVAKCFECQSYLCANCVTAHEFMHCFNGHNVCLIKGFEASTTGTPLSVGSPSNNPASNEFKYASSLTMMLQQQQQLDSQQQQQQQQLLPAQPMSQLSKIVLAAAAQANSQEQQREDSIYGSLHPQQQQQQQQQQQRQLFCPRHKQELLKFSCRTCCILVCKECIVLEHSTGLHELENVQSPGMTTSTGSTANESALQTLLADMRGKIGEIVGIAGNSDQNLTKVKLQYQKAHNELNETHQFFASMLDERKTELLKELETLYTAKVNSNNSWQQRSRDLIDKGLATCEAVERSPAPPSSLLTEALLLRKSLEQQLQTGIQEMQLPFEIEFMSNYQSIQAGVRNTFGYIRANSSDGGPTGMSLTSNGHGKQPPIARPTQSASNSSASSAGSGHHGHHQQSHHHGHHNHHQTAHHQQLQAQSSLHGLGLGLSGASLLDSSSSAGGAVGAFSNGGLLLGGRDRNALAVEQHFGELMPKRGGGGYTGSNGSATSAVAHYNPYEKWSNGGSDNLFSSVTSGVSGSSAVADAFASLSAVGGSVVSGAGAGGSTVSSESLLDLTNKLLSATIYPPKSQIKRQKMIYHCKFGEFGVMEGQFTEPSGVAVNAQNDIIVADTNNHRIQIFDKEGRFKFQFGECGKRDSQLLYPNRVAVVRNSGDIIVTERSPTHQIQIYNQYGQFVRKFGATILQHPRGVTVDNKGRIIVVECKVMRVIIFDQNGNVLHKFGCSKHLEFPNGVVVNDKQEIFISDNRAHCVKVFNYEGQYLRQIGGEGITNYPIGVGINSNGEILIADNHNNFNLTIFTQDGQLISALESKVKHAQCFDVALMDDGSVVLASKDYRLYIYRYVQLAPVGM
Chain of UniProt O60656 (whole entry, looked up): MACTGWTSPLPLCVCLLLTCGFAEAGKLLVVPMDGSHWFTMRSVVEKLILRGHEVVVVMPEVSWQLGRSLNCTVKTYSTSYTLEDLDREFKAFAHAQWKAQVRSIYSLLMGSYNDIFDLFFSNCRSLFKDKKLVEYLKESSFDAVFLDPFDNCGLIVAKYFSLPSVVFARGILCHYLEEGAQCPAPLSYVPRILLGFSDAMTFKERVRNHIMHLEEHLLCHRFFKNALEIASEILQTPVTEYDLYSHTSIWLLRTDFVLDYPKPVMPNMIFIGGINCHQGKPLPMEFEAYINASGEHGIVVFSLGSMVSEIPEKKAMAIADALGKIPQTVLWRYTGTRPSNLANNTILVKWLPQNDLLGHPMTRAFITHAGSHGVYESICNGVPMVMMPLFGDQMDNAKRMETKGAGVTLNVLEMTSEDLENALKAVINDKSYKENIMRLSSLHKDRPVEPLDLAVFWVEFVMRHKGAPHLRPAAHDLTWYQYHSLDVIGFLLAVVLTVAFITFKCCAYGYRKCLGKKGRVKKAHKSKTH
Chain of UniProt P19525 (whole entry, looked up): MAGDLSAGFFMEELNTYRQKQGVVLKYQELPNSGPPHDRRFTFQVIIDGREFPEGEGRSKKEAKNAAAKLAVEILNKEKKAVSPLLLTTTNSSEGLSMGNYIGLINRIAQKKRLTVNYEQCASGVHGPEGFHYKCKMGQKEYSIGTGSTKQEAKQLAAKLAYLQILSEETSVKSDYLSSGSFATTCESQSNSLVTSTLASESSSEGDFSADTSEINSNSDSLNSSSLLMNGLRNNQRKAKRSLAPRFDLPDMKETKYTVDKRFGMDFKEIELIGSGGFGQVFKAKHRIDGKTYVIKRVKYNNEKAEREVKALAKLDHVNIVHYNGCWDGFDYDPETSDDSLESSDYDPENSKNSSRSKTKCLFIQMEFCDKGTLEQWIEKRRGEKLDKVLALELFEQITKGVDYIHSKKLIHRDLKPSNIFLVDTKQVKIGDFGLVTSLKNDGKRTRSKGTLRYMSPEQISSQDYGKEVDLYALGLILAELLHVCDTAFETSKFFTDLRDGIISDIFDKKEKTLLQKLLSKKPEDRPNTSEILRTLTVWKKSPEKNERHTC
Chain of UniProt P27695 (whole entry, looked up): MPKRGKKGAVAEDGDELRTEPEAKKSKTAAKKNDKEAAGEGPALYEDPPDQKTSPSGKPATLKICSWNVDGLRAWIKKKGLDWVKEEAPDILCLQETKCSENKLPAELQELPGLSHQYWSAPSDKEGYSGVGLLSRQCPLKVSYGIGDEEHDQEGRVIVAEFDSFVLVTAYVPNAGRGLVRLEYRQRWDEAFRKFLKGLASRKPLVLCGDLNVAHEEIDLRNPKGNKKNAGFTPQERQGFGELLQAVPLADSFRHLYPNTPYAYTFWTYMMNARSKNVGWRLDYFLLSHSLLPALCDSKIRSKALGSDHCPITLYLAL

Substance	target or system	test	system	setting	measurement	value
TGCTACCGTTGTTTACCCTGCCACCTTCTGGAGTCCAGATGTAGGTAG (XNA; phenol pos 9, isopentyl 21, cyclopentyl 24)	PCSK9	SPR			Kd	3.7 nM
CCGCCTCCGGGAGAGCTG (dsDNA; blunt)	NR3C1 417-506 K442A (Homo sapiens, UniProt P04150)	fluorescence polarization	double-stranded DNA, one strand shown	one-site fit	Kd	5140 ± 510 nM
CCUUGGACAUUUUGUGUCUAGUUGGUAGGGCAUAAUGCCCUUUUACA (ssRNA (Mus musculus))	Traf3ip2 fragment (Mus musculus)	SPR			Kd	59.5 nM
DNA 1 TTCAGGTCAGAAGGGTTCTATCTCTGTTGGCCAGAATGTCCCTTTTATTACTGGTCGTGT / DNA 2 ACACGACCAGTAATAAAAGGGACATTCTGG (dsDNA; primer-template, 5' overhang, 5' amino C6 dT)	RFC1/RFC2/RFC3/RFC4/RFC5 RFC1 284-861 (Saccharomyces cerevisiae)	fluorescence anisotropy	double-stranded DNA	no maltose, added: ATPgS 0.5 mM	Kd	47 ± 10 nM
GAGCGUAUCCGCUCUUUUUUUUUUUUUUUUUUUUUU (structured RNA; hairpin, 3' U20 tail)	PNPT1 46-783 S484A (Homo sapiens, UniProt Q8TCS8)	fluorescence polarization		Mg2+ 2 mM	Kd	422 ± 40 nM
TTGGGCNGGGCCTGGGCGGGGCC (G-quadruplex DNA (Homo sapiens); N7 tetrahydrofuran abasic site)	APEX1 full length assumed (Homo sapiens, UniProt P27695)	fluorescence anisotropy		added: Sm3+ 10 mM	Kd	57 nM
GGCGGTCCCAGCGAGGCCGCCGATTTTUCGGCGGCCUCGCUGGGACCGCC (DNA:RNA chimera; hairpin, DNA 1-27, RNA 28-50)	S9.6 scFv (Mus musculus)	SPR			Kd	0.8 ± 0.2 nM
CGCGCGCGTTTTCGCGCGCG (DNA hairpin; hairpin, 8 bp stem, TTTT loop)	indolicidin	SPR			Kd	42200 nM
GCCTGTTGTGAGCCTCCTAACCGTGCGTATTCGTACTGGAACTGATATCGATGTCCCCATGCTTATTCTTGTCTCCC (ssDNA; three predicted stem loops)	ITGA6/ITGB4 (Homo sapiens)	flow cytometry	PC-3	not purified	Kd	137 ± 22 nM
GAGAACTGTTTTCAGUUCUC (DNA:RNA chimera; hairpin, DNA 1-12, RNA 13-20)	S9.6 scFv (Mus musculus)	SPR			Kd	0.51 ± 0.01 nM
GCGCGGGGAGGGGAGAGGGGGCGGGAGCGGC (G-quadruplex DNA (Homo sapiens))	BG4 antibody	BLI		30 °C	Kd	17.4 ± 0.588 nM
GGGAGGGAGGGAGGGA (structured RNA; G-quadruplex)	T1, HNRNPR full length 1-636 (Homo sapiens)	fluorescence polarization		added: polyN competitor 0 µM	Kd	4.9 ± 3.3 nM
CGGTGTGAATCAGACTTTTGUCUGAUUCACACCG (DNA:RNA chimera; hairpin, DNA 1-19, RNA 20-34)	S9.6 scFv (Mus musculus)	SPR			Kd	0.54 ± 0.02 nM
ATCCAGAGTGACGCAGCACGCAGCACCCGTGGTAGTGTATCAGGGAGACACTACGTGATGCAGCTTGAAATGGACACGGTGGCTTAGT (DNA; intramolecular fold)	CD8A 22-235	flow cytometry	CD8+ T cells	apparent, not purified	Kd	18.3 ± 4.6 nM
TGCTACCGTTGTTTACCCTGCCACCTTCTGGAGTCCAGATGTAGGTAG (XNA; side-chain-functionalized nucleotides, stem-loop)	PCSK9	SPR			Kd	3 nM
GGGGAAUCAAAAAUUUAUUUUUUACACGGAAACGAUGCCACAGUUGACUGAACCUGUCUUCUAACAGUAGUUAAUUGCCAGUAUUUCAAACAAGAUUUGAAAUACGAGUUUCCCAGAAUAAUUUAUUUGGACAGGAUAGGAAGUCCGAUUUCUGUGUUGUCUCAAACGAGGCGAUAGAAUUGGGAUGUCGAAGAAAGUCUACAUUAGAAUUCGAGCU (structured RNA (Saccharomyces cerevisiae); two hairpins)	CBF5/NOP10/GAR1/NHP2 (Saccharomyces cerevisiae)	filter binding			Kd	0.5 ± 0.2 nM
GGGAGAGGCAAGUCGUUCGGUCGCGUUCGCUGUCGUCGCGUCUUGUAUGCCACUGUACCC / GGGTACAGTGGCATACAAGACGCGACGACAGCGAACGCGACCGAACGACTTGCCTCTCCC (chimeric DNA/RNA duplex; blunt, strand 2 RNA 23-38)	EIF2AK2 1-184 (Homo sapiens, UniProt P19525)	ITC		20 °C, weak sites, two-site fit, less reliable	Kd	5000 ± 1000 nM
ATCCAGAGTGACGCAGCAGCTCGATCGTATAGCCGTGACGCAGCTTGAAATGGGATCGCGTCCACAGTTTTGGACACGGTGGCTTAGT (DNA; intramolecular fold)	CD8A 22-235	flow cytometry	CD8+ T cells	apparent, not purified	Kd	2.4 ± 0.9 nM
CAGAGAGAGTTTTCTCTCTCTG (DNA hairpin; hairpin, 9 bp stem, TTTT loop)	indolicidin	SPR			Kd	43800 nM
GAGUUGAGUUGAGUUGAGUUGAGUUGAGUUGAGUUGAGUUGAGUUGAGUUGAGUU (ssRNA; single strand)	mtrB full length assumed T30D (Bacillus subtilis, UniProt P19466)	filter binding		added: L-tryptophan 1 mM	Kd	230 ± 6 nM
UGT1A9 (Homo sapiens, UniProt O60656)	O=c1oc2cc(O)ccc2c(-c2ccccc2)c1-c1ccccc1	steady-state kinetics		pH 7.4, 37 °C	Vmax	0.000137 µmol/min/mg
CGATGTCATCG (dsDNA; blunt, O6-dG interstrand cross-link, 7-carbon)	MGMT full length assumed C145S (Homo sapiens, UniProt P16455)	EMSA	double-stranded DNA, one strand shown	monomeric Kd	Kd	9670 ± 1120 nM
TGGGGAGGGTGGGGAGAGTGGGGAAGG (G-quadruplex DNA (Homo sapiens))	BG4 scFv	SPRi		K+ 100 mM	Kd	246 nM
AATAAATNATTTATT (dsDNA)	protein full length assumed (Edwardsiella piscicida, UniProt A0AAQ3C0I8)	MST	double-stranded DNA, one strand shown		Kd	2.5 ± 0.5 nM
GGGAGACCUAGCCUCAUAUAAUCGUUGUCCAGAAUUGUAUAUAUUCGUAGCAUAAGUUUUCCAAACAUUAUUUUGUUGUCGAAAAUUGUACAUAAGCCAAUUAAGCCGCUAAUUCU (ssRNA)	brat 756-1037 (Drosophila melanogaster, UniProt Q8MQJ9)	MST			Kd	137 ± 36.8 nM
